{"data": "Published values of several laboratories", "note": "Numbered parts are unrelated; each lists some results of a single study. Substitutions count along the parent as printed."}
{"data": "Sample 1", "target": "Histone acetyltransferase KAT6A, both winged helices, GST fusion (KAT6A, Homo sapiens, UniProt Q92794, residues 1-181)", "technique": "protein binding microarray", "molecule type": "double-stranded DNA, one strand shown", "sample": "in vitro", "tested at": "not given", "setting": "8-mer, flanks averaged, mean of 2 arrays, mostly near background", "baseline": "not given", "reading": "higher = stronger binding", "Construct (chain)": "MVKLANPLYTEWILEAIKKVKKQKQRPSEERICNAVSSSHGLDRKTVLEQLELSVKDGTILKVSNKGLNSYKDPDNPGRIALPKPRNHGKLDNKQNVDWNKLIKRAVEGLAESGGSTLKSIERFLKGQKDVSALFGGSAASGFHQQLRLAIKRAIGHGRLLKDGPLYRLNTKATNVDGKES"}
{"Sequence": "CACTTTTC", "E-score": -0.115}
{"Sequence": "ACTATCCG", "E-score": 0.131}
{"Sequence": "AATCACAT", "E-score": -0.049}
{"Sequence": "CTGAAAGC", "E-score": -0.0488}
{"Sequence": "ACTGTTGA", "E-score": -0.0781}
{"Sequence": "GCACACGA", "E-score": 0.0934}
{"Sequence": "AGACCGAA", "E-score": 0.0648}
{"data": "Sample 2", "target": "ABI1, truncated, D143A, DHFR fusion (Arabidopsis thaliana)", "technique": "DHFR PCA, deep sequencing", "sample": "yeast", "setting": "methotrexate growth selection, single substitutions", "together with": "(+)-ABA 58 µM", "baseline": "wild-type fitted maximum", "reading": "higher = stronger binding", "parent": "PYL1, truncated, DHFR fusion (Arabidopsis thaliana); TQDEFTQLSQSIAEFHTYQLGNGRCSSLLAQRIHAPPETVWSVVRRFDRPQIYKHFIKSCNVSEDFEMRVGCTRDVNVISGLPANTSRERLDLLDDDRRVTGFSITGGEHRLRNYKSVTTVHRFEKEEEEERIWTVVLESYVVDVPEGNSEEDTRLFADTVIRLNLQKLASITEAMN; partner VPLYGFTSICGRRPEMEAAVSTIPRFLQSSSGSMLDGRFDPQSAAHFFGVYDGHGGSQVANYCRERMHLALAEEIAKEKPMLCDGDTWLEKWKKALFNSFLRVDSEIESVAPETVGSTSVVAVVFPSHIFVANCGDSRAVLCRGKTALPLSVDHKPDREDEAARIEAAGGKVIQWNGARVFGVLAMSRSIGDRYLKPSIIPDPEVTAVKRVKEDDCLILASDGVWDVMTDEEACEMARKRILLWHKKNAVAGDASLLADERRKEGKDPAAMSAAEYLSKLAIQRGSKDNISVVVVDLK"}
{"Substitution": "P83G", "relative binding score [%]": 47.3}
{"Substitution": "H122P", "relative binding score [%]": -4.25}
{"Substitution": "R49I", "relative binding score [%]": 54.6}
{"Substitution": "E129G", "relative binding score [%]": 93.8}
{"Substitution": "K54I", "relative binding score [%]": 9.18}
{"Substitution": "E151T", "relative binding score [%]": 79.1}
{"Substitution": "F124P", "relative binding score [%]": 49.2}
{"data": "Sample 3", "target": "Ras GTPase-activating protein-binding protein 1, C-terminal RGG region (G3BP1, Homo sapiens, UniProt Q13283)", "technique": "RNA Bind-n-Seq", "molecule type": "RNA", "sample": "in vitro", "tested at": "1 µM", "setting": "whole 134-nt RNA, ends assumed", "together with": "150 mM KCl", "baseline": "input library", "reading": "higher = stronger binding", "all sequences stand within": "GGGAGUUCUACAGUCCGACGAUC … UGGAAUUCUCGGGUGUCAAGG", "UniProt Q13283, sequence (whole entry, looked up)": "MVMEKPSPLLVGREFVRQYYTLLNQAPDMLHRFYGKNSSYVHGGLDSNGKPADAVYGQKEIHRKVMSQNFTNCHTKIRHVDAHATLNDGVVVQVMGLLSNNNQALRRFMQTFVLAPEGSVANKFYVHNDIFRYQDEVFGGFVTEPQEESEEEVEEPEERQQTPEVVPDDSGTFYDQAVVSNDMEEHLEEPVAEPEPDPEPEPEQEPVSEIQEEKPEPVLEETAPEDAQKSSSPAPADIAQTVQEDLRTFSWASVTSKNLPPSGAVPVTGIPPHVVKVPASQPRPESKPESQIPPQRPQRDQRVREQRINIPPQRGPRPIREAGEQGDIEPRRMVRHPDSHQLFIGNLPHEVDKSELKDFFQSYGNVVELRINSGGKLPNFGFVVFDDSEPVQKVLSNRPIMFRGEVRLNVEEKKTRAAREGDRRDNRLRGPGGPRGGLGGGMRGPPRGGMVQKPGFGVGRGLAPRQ"}
{"Sequence": "UCAAGUCCUGUGCUACACAUCGUAUGUACCGAAUCGGAAAAAGGUGGUUUUUGGAAAGUAUUAUGUUACGCCGUUCGGAUCUGCACUUCC", "log2 enrichment": -1.25}
{"Sequence": "CACAGACAACACGCACCCACACAGACACAGAGGGAAGGGGUUGGGAUGGGGACAGGGUGCACAGCGGGGCGGGGUAGGACCCCAGCCCCU", "log2 enrichment": -0.215}
{"Sequence": "GUCCUGUGCUACACAUCGUAUGUACCGAAUCGGGAAAAAGGGUUUUUUUGGGUUUGGGAAAGUAUUAUGUUACGCCGUUCGGAUCUGCAC", "log2 enrichment": -0.687}
{"Sequence": "GCAGGAAGUAAAAACAAAUGGAAAUGCUUCGGAUAGUGGCAGGGGUGGGGGUUGCUAAGGAAAGGGUGGGAUGGGAGUGAAAAAAGAGUU", "log2 enrichment": 2.01}
{"Sequence": "CUGUGCUACACAUCGUAUGUACCGAAUCGGGGUUUUUUUGGGGAAAGGGGAAAAAAAGGGGAAAGUAUUAUGUUACGCCGUUCGGAUCUG", "log2 enrichment": -0.601}
{"Sequence": "UGGCCCUGGUGGCAUGCGGGGAGGAAGAGGUGGCCUCAUGGAUCGUGGUGGUCCCGGUGGAAUGUUCAGAGGUGGCCGUGGUUGAGACAG", "log2 enrichment": 3.78}
{"Sequence": "GCAGGAAGUAAAAACAAAUGGAAAUGCUUCGGAUAGUGGCAGGGGUGGGGGUUGCUAAGGAAAGGGUGGGAUGGGAGUGGGUAAAGGGUU", "log2 enrichment": 0.63}
{"data": "Mixed results"}
{"Molecule": "PhoQ, residues 284 288 289 292 302 303 AAQSYM", "target": "PhoP, residues 12 14 15 18 19 VQGLL (Escherichia coli, UniProt P23836)", "assay": "Sort-seq, refers to: YFP reporter", "system": "E. coli", "conditions": "PhoQ-PhoP variant library, together with: 10 µM Mg2+", "how to read": "baseline: high Mg2+ state, higher = stronger signaling", "quantity": "fold induction", "result": 16.7}
{"note": "Some of these lines once more (sample 1):"}
{"Sequence": "GCACACGA", "E-score": 0.0934}
{"Sequence": "AGACCGAA", "E-score": 0.0648}
